Results from different studies.
Each numbered part is a random draw from the data of one study; scales do not carry over between parts. Positions count from the first letter of the parent shown.

Block 1
Target: RNA binding protein fox-1 homolog 2, RRM domain, GST-SBP tag (RBFOX2, Homo sapiens, UniProt O43251-10, residues 100-194)
Technique: RNA Bind-n-Seq
Form: RNA
Medium: in vitro
Tested at: 365 nM
Notes: natural RNA segment, single round, ends assumed
Reference: no-protein control
Reading: higher = stronger binding
Residues (chain): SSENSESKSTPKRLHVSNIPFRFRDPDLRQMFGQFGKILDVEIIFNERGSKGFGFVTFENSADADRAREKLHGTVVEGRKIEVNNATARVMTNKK
`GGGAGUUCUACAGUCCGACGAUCGGGGGUUUGCGGUUUUUCUGGGACAACAAGUUUGACCAUGCAAUGGUAGCUUUUCUGGACUGUGUGCAGCAGUUCAAAGAAGAGGUGGAAAAAGGAGAGACUCGAUUUUGUGGAAUUCUCGGGUGCCAA`: “RBNS enrichment (R)” 0.847.
`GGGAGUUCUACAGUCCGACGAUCCCAAAUUGCUGGUGGAUAUGGGGCUGAAGGCAGAAGCAGCUGGGAAGGGCAGUAGAGGCGCAAGCUGGGUCCUGCUGGCCGGGGUAGCUCAGCUGUGACUUUGGACUCUGUGGAAUUCUCGGGUGCCAA` — result for “RBNS enrichment (R)”: 0.692.
Under “RBNS enrichment (R)”, `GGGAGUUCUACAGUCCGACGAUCCAGCUCUAGGGCCUCAGUCUGGAGUGGGAUAGGAGCAGUGAGUGACAAAGCCUCUGAAAGAUGCAUCAUCUCUUCCUCACACCCAUUUAGUGGGGGAUGGGUCCUCUAGAUGGAAUUCUCGGGUGCCAA` is recorded as 0.331.
Under “RBNS enrichment (R)”, `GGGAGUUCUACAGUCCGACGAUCGCCACUUCAUCUUAUGUGCCGCUGCUUGUCUUCAGCCCAUUAGCCAGGUACUGAGCGUCAGGCUCUGCAUAGCAGUUAAGCAGCACUGGUAGUGGUCUGCCGUGCAGGGGUGGAAUUCUCGGGUGCCAA` is recorded as 0.276.
Under “RBNS enrichment (R)”, `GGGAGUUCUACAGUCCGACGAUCGUAAUAAGGAGGGAGCUCUGGACUCAAAGCAGCUGGCUUCCACAGCUGAAGGUUUUACAUUACGUUUUCAAUUAAGUUGCCAACGUUUUAACAACUGGAGAAUGGUAUUCUGGAAUUCUCGGGUGCCAA` is recorded as 0.66.
`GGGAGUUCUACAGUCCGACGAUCGAAGUCUUCCCUCAACUACGUGUGAUGACCAAGUCCAAGGUUGACCAGGGACUGUCUACAGCAGCCACAGCCACUGUGCACAAUGGACAGGGUGCCCAGGUCCUCGGAGCUGGAAUUCUCGGGUGCCAA`: “RBNS enrichment (R)” 0.244.
`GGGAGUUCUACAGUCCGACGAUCGUCAGUACCUUAUUGUUAAAGUGAGUCAGAUAAAUCUUCAAUUCCUGGCUAUUUGGGCAAUUGAAUCAUCAUGGACUGUAUAAUGCAAUCAGAUUAUUUUGUUUCUAGACUGGAAUUCUCGGGUGCCAA`: “RBNS enrichment (R)” 0.574.
`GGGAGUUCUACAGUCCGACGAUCGCUUUUGCCAAGCCUCCCAUCCUGAGCUCUAAAUGGAAGGCCUUUCUAUGGGGUAGCUAAGUUUGGGAAGCCUAUGAACUGUGGGUCCUGCCAAGGUUCUCAAAGCACUUUGGAAUUCUCGGGUGCCAA`: “RBNS enrichment (R)” 0.26.
`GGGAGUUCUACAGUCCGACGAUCUUUUUUUGAGACGGAGUUUUGCUCUUGUUACCCAGGCUGGAGUGCAGUGGCGUGAUCUUGGCUCACUGCAACUUCCGUCUCCCGGGUUCAAGUGAUUCUCCUGCCUCAGCUGGAAUUCUCGGGUGCCAA`: “RBNS enrichment (R)” 0.553.
`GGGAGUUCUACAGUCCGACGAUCAUGUAAAGUUUAUUUUUAAGAAUCCAAUAGUGAUUUGUAUACUUGUUUUUUUUUCAUUUUAAACCAAAUGCAUGUAUAAUCAUGUUGGAAUAUGUUAAGAUCUAUGGAUAUGGAAUUCUCGGGUGCCAA`: “RBNS enrichment (R)” 1.59.
`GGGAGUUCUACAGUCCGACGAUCAAAUAAUACCAAGUAAAAUAAUACAGAUAUUAUUAAAGUUUCUGGUUUUGAGGUGUUGUAGAUAAAUGUAUUUAUGUGCCUAGUGGGGAAUCCAAUAUUAUGAAUAUGAAUGGAAUUCUCGGGUGCCAA`: “RBNS enrichment (R)” 1.29.
`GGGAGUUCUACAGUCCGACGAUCAAGUCAUACCCUGUGAGUAACUGGCCUGUAAUGGCGCUCUUCCUAGGACAGUGGUGACCUUGUCUGUGCCGGUGACUGCACCCUGCAGGUAACAGUGAAAGCUUUUAAGCUGGAAUUCUCGGGUGCCAA`: “RBNS enrichment (R)” 0.22.

Block 2
Target: Prothrombin, mature alpha-thrombin (F2, Homo sapiens, UniProt P00734)
Technique: aptamer microarray, sandwich
Form: DNA with 2'F-ANA
Medium: in vitro
Tested at: 200 nM
Notes: whole 15-mer aptamer, many near background
Together with: Cy3 exosite-II aptamer, 400 nM
Reading: higher = stronger binding
Sequence: GGTTGGTGTGGTTGG
For `2'F-ANA at 1 2 5 6 7 9 11 12 14`, “mean fluorescence intensity” read 47.9 a.u.
For `2'F-ANA at 1 3 4 7 9 10 11 13 14 15`, “mean fluorescence intensity” read 52 a.u.
Under “mean fluorescence intensity”, `2'F-ANA at 1 3 4 5 6 8 10 11` is recorded as 66.4 a.u.
`2'F-ANA at 1 2 3 4 5 7 8 10 14`: “mean fluorescence intensity” 46.2 a.u.
`2'F-ANA at 1 3 4 5 6 8 12 13`: “mean fluorescence intensity” 140 a.u.
`2'F-ANA at 1 2 3 4 6 7 12 15` — result for “mean fluorescence intensity”: 346 a.u.
`2'F-ANA at 2 7 9 11 12 15` — result for “mean fluorescence intensity”: 578 a.u.
`2'F-ANA at 6 7 8 9 11 13 14` — result for “mean fluorescence intensity”: 172 a.u.
`2'F-ANA at 2 3 4 6 7 9 13` — result for “mean fluorescence intensity”: 319 a.u.
For `2'F-ANA at 5 7 8 9 10 11 12 13 14`, “mean fluorescence intensity” read 49.5 a.u.
For `2'F-ANA at 1 3 9 11 12`, “mean fluorescence intensity” read 458 a.u.
`2'F-ANA at 1 2 3 5 7 8 10 13 15` — result for “mean fluorescence intensity”: 67.8 a.u.
Under “mean fluorescence intensity”, `2'F-ANA at 2 3 6 9 13 14 15` is recorded as 290 a.u.
`2'F-ANA at 5 6 9` — result for “mean fluorescence intensity”: 78.9 a.u.
`2'F-ANA at 1 2 5 6 10 11 13` — result for “mean fluorescence intensity”: 45.5 a.u.
`2'F-ANA at 2 5 7 9 10 11 15`: “mean fluorescence intensity” 48.3 a.u.

Block 3
Target: ABI1, truncated, D143A, DHFR fusion (Arabidopsis thaliana)
Technique: DHFR PCA, deep sequencing
Medium: yeast
Notes: methotrexate growth selection, single substitutions
Together with: (+)-ABA 0.0091 µM
Reference: wild-type fitted maximum
Reading: higher = stronger binding
Parent: PYL1, truncated, DHFR fusion (Arabidopsis thaliana); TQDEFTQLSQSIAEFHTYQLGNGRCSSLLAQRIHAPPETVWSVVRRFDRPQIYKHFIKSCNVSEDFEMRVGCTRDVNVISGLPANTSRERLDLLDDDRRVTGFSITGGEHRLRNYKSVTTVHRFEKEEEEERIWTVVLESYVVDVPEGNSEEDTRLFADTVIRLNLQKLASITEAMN; partner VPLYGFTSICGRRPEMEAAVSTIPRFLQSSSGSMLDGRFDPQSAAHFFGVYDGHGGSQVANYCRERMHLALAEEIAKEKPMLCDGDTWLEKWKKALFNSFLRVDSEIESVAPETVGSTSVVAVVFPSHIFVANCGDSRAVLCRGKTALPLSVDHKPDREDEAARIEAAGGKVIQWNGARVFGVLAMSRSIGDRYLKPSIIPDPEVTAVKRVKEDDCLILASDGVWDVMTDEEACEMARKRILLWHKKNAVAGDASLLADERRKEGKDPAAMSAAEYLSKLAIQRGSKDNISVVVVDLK
`V145Q` — result for “relative binding score”: -0.075%.
`R163A` — result for “relative binding score”: 14%.
For `W134E`, “relative binding score” read 38.5%.
`K168V` — result for “relative binding score”: 1.23%.
`R111P` — result for “relative binding score”: 20.5%.
Under “relative binding score”, `V143M` is recorded as 7.27%.
Under “relative binding score”, `Y115E` is recorded as -1.04%.
Under “relative binding score”, `D96F` is recorded as -8.95%.
`R113N` — result for “relative binding score”: 4.26%.
For `A175S`, “relative binding score” read 28%.
`V44D`: “relative binding score” -3.99%.
Under “relative binding score”, `E151K` is recorded as 30.8%.
`S80P`: “relative binding score” 5.07%.
Under “relative binding score”, `I79Q` is recorded as 12.9%.
`L93W` — result for “relative binding score”: -4.15%.
For `S117V`, “relative binding score” read -3.42%.
For `T173N`, “relative binding score” read 6.29%.
`N149K` — result for “relative binding score”: 7.58%.

Block 4
Target: CCNA2, cyclin fold, Cln2 fusion (human)
Technique: yeast growth competition, sequencing
Medium: yeast
Notes: strong parent motif
Reference: not given
Reading: higher = stronger binding
Parent: CDC6 docking peptide (human); TLKGRRLVFDNQL
`G4L` — result for “normalised enrichment score”: 1.85.
For `D10Y`, “normalised enrichment score” read 1.64.
For `N11A`, “normalised enrichment score” read 3.19.
`R5K`: “normalised enrichment score” 2.27.
`L13A` — result for “normalised enrichment score”: 3.59.
Under “normalised enrichment score”, `R6M` is recorded as 2.37.
`T1P` — result for “normalised enrichment score”: 3.15.
Under “normalised enrichment score”, `G4Q` is recorded as 1.76.
Under “normalised enrichment score”, `F9Y` is recorded as 1.29.
`R6A` — result for “normalised enrichment score”: 0.952.
Under “normalised enrichment score”, `K3D` is recorded as 0.0741.
Under “normalised enrichment score”, `T1K` is recorded as 4.83.
For `V8S`, “normalised enrichment score” read 2.34.
`L7I` — result for “normalised enrichment score”: 1.6.
`G4E`: “normalised enrichment score” -0.425.
`R5G`: “normalised enrichment score” 0.697.
`T1G` — result for “normalised enrichment score”: 3.4.
For `T1Q`, “normalised enrichment score” read 2.17.
Under “normalised enrichment score”, `L13G` is recorded as 3.35.
For `L7N`, “normalised enrichment score” read 0.373.

Single results of other studies
`PhoQ, residues 284 288 289 292 302 303 SVHLDV` gave a fold induction of 1.79 (PhoP, residues 12 14 15 18 19 YHFSH (Escherichia coli, UniProt P23836); Sort-seq, measured: YFP reporter; E. coli; PhoQ-PhoP variant library, together with: 10 µM Mg2+; reference: high Mg2+ state, higher = stronger signaling).

Repeated from above (block 2):
`2'F-ANA at 1 3 4 5 6 8 12 13`: “mean fluorescence intensity” 140 a.u.
`2'F-ANA at 1 2 3 4 6 7 12 15` — result for “mean fluorescence intensity”: 346 a.u.
`2'F-ANA at 2 7 9 11 12 15` — result for “mean fluorescence intensity”: 578 a.u.
`2'F-ANA at 6 7 8 9 11 13 14` — result for “mean fluorescence intensity”: 172 a.u.
`2'F-ANA at 2 3 4 6 7 9 13` — result for “mean fluorescence intensity”: 319 a.u.
For `2'F-ANA at 5 7 8 9 10 11 12 13 14`, “mean fluorescence intensity” read 49.5 a.u.
For `2'F-ANA at 1 3 9 11 12`, “mean fluorescence intensity” read 458 a.u.
`2'F-ANA at 1 2 3 5 7 8 10 13 15` — result for “mean fluorescence intensity”: 67.8 a.u.
Under “mean fluorescence intensity”, `2'F-ANA at 2 3 6 9 13 14 15` is recorded as 290 a.u.
